Published values from different studies.
Lines come from different studies, so protocols differ. Numbers after ± are the reported error.
Melanocortin receptor 5: Melanocortin receptor 5 (Mus musculus, UniProt P41149)
Chain of UniProt P41149 (whole entry, looked up): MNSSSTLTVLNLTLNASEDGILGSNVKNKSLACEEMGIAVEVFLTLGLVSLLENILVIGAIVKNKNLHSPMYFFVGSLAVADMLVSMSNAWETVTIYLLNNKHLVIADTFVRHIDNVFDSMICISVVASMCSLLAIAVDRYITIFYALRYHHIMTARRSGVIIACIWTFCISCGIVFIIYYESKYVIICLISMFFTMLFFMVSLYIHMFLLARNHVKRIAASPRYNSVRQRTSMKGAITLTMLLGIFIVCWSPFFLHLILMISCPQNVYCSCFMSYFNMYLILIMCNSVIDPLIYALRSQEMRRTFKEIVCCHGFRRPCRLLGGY
Chain of UniProt P02730 (whole entry, looked up): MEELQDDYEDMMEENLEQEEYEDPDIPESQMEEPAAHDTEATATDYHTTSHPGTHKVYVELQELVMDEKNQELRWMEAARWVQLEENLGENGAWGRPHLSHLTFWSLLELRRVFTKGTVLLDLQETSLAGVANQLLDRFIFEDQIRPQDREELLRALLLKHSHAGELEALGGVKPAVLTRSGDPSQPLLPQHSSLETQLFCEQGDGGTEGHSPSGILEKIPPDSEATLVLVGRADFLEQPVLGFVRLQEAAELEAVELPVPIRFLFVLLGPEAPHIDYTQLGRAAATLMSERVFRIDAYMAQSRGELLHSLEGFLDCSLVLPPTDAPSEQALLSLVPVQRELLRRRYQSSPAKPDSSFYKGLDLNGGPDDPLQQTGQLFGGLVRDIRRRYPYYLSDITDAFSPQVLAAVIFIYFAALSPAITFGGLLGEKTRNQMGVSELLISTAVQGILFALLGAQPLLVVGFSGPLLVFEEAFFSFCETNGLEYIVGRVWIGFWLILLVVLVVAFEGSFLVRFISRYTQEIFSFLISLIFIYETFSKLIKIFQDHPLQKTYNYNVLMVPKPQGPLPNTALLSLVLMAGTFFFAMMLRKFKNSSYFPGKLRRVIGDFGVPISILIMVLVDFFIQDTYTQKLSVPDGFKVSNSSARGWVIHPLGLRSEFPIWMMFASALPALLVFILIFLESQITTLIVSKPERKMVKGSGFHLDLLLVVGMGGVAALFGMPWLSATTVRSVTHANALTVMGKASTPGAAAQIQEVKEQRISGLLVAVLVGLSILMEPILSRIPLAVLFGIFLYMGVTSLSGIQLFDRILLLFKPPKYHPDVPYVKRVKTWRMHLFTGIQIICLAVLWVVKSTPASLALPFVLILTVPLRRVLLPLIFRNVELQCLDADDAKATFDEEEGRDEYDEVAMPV
Chain of UniProt Q5S006 (whole entry, looked up): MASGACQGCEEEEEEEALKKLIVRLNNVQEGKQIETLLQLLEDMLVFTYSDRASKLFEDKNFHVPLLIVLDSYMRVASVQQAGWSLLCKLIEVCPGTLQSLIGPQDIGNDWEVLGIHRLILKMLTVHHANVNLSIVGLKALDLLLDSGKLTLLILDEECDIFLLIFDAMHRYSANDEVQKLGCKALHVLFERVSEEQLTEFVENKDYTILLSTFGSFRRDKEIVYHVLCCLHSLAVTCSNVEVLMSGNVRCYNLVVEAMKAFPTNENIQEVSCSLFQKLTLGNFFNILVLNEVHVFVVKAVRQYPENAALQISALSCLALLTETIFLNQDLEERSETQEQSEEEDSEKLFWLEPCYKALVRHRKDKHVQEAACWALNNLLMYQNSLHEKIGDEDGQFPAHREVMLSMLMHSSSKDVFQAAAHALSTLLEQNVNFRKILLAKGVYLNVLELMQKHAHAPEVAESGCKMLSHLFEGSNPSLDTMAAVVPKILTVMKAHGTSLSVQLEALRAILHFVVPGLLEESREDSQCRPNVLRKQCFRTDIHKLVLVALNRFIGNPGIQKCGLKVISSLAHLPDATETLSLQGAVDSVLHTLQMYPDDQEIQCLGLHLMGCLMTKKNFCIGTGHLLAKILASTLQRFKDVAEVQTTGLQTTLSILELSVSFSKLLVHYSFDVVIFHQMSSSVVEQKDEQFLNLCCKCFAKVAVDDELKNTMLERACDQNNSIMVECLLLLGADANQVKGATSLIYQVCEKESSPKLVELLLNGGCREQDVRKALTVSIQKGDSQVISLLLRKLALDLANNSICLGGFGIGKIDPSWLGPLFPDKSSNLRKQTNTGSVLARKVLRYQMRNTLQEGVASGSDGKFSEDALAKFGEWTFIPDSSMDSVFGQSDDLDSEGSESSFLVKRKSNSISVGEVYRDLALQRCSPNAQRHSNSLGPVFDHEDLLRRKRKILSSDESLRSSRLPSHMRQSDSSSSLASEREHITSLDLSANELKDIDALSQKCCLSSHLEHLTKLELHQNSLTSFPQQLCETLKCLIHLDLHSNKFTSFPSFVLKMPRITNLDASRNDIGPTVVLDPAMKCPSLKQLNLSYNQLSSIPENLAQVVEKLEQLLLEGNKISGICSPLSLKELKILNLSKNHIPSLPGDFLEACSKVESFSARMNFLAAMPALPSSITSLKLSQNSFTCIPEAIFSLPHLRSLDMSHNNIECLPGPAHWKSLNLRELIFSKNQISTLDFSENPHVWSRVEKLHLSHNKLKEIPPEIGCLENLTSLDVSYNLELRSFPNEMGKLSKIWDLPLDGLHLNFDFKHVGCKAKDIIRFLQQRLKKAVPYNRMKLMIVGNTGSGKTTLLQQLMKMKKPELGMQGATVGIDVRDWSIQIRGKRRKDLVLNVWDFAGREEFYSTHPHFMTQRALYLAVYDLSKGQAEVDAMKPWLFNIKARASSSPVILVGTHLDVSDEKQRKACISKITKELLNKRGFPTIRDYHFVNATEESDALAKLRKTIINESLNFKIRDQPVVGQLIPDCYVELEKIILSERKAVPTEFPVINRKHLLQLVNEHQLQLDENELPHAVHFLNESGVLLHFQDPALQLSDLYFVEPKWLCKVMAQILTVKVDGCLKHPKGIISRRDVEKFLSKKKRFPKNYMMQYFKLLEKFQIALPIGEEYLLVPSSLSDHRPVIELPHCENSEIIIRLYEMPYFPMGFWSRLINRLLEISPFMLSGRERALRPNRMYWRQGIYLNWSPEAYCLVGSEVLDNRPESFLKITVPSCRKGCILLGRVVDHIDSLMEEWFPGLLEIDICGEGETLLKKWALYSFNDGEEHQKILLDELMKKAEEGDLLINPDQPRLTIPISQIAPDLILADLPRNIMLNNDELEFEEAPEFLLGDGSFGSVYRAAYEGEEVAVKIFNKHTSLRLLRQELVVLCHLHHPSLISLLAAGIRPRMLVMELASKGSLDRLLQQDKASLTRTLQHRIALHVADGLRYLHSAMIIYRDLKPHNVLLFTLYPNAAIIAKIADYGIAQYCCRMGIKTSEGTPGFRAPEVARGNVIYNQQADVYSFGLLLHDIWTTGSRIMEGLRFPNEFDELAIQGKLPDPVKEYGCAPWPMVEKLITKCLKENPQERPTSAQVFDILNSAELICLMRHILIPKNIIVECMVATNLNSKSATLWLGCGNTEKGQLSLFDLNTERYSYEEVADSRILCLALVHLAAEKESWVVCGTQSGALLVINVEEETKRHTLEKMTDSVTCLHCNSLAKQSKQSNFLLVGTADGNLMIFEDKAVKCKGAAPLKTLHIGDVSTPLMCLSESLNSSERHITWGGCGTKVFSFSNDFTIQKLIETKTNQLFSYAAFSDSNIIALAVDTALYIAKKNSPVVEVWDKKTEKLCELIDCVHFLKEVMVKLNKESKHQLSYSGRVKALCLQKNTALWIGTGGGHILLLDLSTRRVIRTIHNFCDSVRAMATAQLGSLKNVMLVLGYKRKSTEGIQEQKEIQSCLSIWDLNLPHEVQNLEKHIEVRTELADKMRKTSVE
Chain of UniProt Q9UHM6 (whole entry, looked up): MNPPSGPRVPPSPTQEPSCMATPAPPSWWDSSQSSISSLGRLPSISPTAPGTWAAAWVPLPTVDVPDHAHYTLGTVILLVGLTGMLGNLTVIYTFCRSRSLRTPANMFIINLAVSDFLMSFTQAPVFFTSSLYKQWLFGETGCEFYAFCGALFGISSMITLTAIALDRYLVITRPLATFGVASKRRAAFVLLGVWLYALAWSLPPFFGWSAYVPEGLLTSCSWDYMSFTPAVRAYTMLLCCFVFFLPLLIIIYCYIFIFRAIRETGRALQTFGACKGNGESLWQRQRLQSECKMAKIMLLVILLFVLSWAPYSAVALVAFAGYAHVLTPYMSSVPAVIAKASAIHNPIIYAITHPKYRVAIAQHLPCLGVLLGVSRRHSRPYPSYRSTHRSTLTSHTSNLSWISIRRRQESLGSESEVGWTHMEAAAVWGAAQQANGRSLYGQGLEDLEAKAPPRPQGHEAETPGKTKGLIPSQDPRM

| SMILES | target or system | assay | system | conditions | endpoint | value |
| --- | --- | --- | --- | --- | --- | --- |
| COc1cc(Cl)c(S(=O)(=O)N2CCCCC2)cc1Cl | Melanopsin (OPN4, Homo sapiens, UniProt Q9UHM6) | calcium release, antagonist, Schild analysis | CHO cells expressing OPN4 | previously light-exposed cells, added: 9-cis retinal | Kb | 6.2 ± 1.1 nM |
| CSCC[C@H](NC(=O)[C@H](CO)NC(=O)[C@H](Cc1ccc(O)cc1)NC(=O)[C@H](CO)NC(C)=O)C(=O)N[C@@H](CCC(=O)O)C(=O)N[C@@H](Cc1c[nH]cn1)C(=O)N[C@@H](Cc1ccccc1)C(=O)N[C@@H](C)C(=O)N[C@@H](Cc1c[nH]c2ccccc12)C(=O)NCC(=O)N[C@@H](CCCCN)C(=O)N1CCC[C@H]1C(=O)N[C@H](C(N)=O)C(C)C | Melanocortin receptor 5 |  |  |  | EC50 | 90 ± 20 nM |
| Nc1ncnc2c1ncn2[C@@H]1O[C@H](COP(=O)(O)OP(=O)(O)O)[C@@H](O)[C@H]1O | Lrrk2 (Mus musculus, UniProt Q5S006) | LRRKtide phosphorylation, inhibitor, radiometric |  | Ki,e, ATP varied | Ki | 200 ± 20 µM |
| CC1=C(CO)C(=O)O[C@@H]([C@@H](C)[C@H]2CC[C@H]3[C@@H]4C[C@H]5O[C@]56[C@@H](O)C=CC(=O)[C@]6(C)[C@H]4CC[C@]23C)C1 | C2C12 myotubes | NF-κB reporter gene, inhibitor |  | 24 h, added: TNF-α 10 ng/mL | IC50 | 4.47 µM |
| CSCC[C@H](NC(=O)[C@H](CO)NC(=O)[C@H](C)NC(=O)[C@H](CO)NC(C)=O)C(=O)N[C@@H](CCC(=O)O)C(=O)N[C@@H](Cc1c[nH]cn1)C(=O)N[C@@H](Cc1ccccc1)C(=O)N[C@@H](CCCNC(=N)N)C(=O)N[C@@H](Cc1c[nH]c2ccccc12)C(=O)NCC(=O)N[C@@H](CCCCN)C(=O)N1CCC[C@H]1C(=O)N[C@H](C(N)=O)C(C)C | Melanocortin receptor 5 |  |  |  | EC50 | 17.2 ± 8.4 nM |
| [I-].[K+] | SLC4A1 (Homo sapiens, UniProt P02730) | Cl- exchange, inhibitor, 36Cl flux, two-site model | erythrocytes | pH 12, only site D protonated, unbuffered point excluded | Kd | 13 mM |
| CSCC[C@H](NC(=O)[C@H](CO)NC(=O)[C@H](Cc1ccc(O)cc1)NC(=O)[C@H](CO)NC(C)=O)C(=O)N[C@@H](CCC(=O)O)C(=O)N[C@@H](Cc1c[nH]cn1)C(=O)N[C@@H](Cc1ccccc1)C(=O)N[C@@H](CCCNC(=N)N)C(=O)N[C@@H](Cc1c[nH]c2ccccc12)C(=O)NCC(=O)N[C@@H](CCCCN)C(=O)N[C@@H](C)C(=O)N[C@H](C(N)=O)C(C)C | Melanocortin receptor 5 |  |  |  | EC50 | 30 ± 25 nM |
| CCOC(=O)[C@]1(CS)N[C@@H](C(=O)O)C(C)(C)S1 | sfhI (Serratia fonticola, UniProt Q9RMI1) | enzyme activity, inhibitor |  | pH 7.5, 30 °C, added: imipenem substrate | Ki | 1 ± 0.1 µM |
| Nc1ncnc2c1ncn2[C@@H]1O[C@H](COP(=O)(O)OP(=O)(O)O)[C@@H](O)[C@H]1O | ATP1A1 (Sus scrofa, UniProt P05024) | binding, radioligand binding | pig membranes | pH 7.7, 0 °C, ionic strength 378 mM, added: NaCl 319 mM | Kd | 0.00335 ± 5.4e-05 mM |

Excerpt of the above:
| SMILES | target or system | assay | system | conditions | endpoint | value |
| --- | --- | --- | --- | --- | --- | --- |
| CSCC[C@H](NC(=O)[C@H](CO)NC(=O)[C@H](Cc1ccc(O)cc1)NC(=O)[C@H](CO)NC(C)=O)C(=O)N[C@@H](CCC(=O)O)C(=O)N[C@@H](Cc1c[nH]cn1)C(=O)N[C@@H](Cc1ccccc1)C(=O)N[C@@H](CCCNC(=N)N)C(=O)N[C@@H](Cc1c[nH]c2ccccc12)C(=O)NCC(=O)N[C@@H](CCCCN)C(=O)N[C@@H](C)C(=O)N[C@H](C(N)=O)C(C)C | Melanocortin receptor 5 |  |  |  | EC50 | 30 ± 25 nM |
